Measured values from different studies.
A part holds a random share of what one study measured. Values joined by “and” are separate records of one study, mostly repeats; a detail may differ.

Sample 1
SMILES: CC(=O)N[C@@H](Cc1c[nH]c2ccccc12)C(=O)N[C@@H](CCC(=O)C=[N+]=[N-])C(=O)OC(C)C
species	matrix	route	dose	time	tumour volume
mouse	MC-38 rechallenge tumour		1 mg/kg	day 0 after injection	0 mm3
mouse, EL4 tumour		subcutaneous	0.3 mg/kg	day 15	941 mm3 and 111 mm3 and 52.8 mm3 and 0 mm3 and 170 mm3 and 144 mm3
mouse, EL4 tumour		subcutaneous	0.3 mg/kg	day 16	945 mm3 and 0 mm3 and 97.2 mm3
mice, MC-38 tumour rechallenge			1 mg/kg	day 6 after injection	71.9 mm3 and 21.2 mm3 and 64.8 mm3
mice, MC-38 tumour rechallenge			1 mg/kg	day 29 after injection	0 mm3

Sample 2 — organism: Sarcocystis neurona; read-out: parasite growth; concentration: 10 µM; setting: secondary screen
Compound	inhibition
CCCc1nc2c(C)cc(-c3nc4ccccc4n3C)cc2n1Cc1ccc(-c2ccccc2C(=O)O)cc1	15.6%
CCc1nc(N)nc(N)c1-c1ccc(Cl)cc1	65.7%
CC(=O)OCC(=O)[C@@]1(O)CC[C@H]2[C@@H]3CCC4=CC(=O)CC[C@]4(C)[C@H]3C(=O)C[C@@]21C	-1.9%
OCc1cc(C(O)CNCCCCCCOCCCCc2ccccc2)ccc1O (stereo not shown)	25.2%
COc1cc(C(=O)NC2CCCNC2)cc(OC)c1OC (stereo not shown)	-40%
CC(C)c1nc(CN(C)C(=O)N[C@H](C(=O)N[C@@H](Cc2ccccc2)C[C@H](O)[C@H](Cc2ccccc2)NC(=O)OCc2cncs2)C(C)C)cs1	11.6%
CCN(CC)CCNC(=O)c1cc(Cl)c(N)cc1OC.Cl	-29.3%

Sample 3 — cell line: HaCaT; concentration: 100 µM; time: 60 h
Structure (SMILES)	viability [%]
CC1CCc2cc(F)cc3c(=O)c(C(=O)O)cn1c23 (stereo not shown)	124
C[N+]1(C)CCC(=C(c2ccccc2)c2ccccc2)CC1	163
c1cc(CN2CCCNCCNCCCNCC2)ccc1CN1CCCNCCNCCCNCC1	161
O=C(O)c1ccc[n+]([O-])c1	143
CC(C)(C)C(=O)C(Oc1ccc(Cl)cc1)n1ccnc1 (stereo not shown)	127

Sample 4 — read-out: enzyme activity; action: inhibitor; concentration: 0.5 µM; reference: control
Target: cGMP-dependent protein kinase 1 (PRKG1, Homo sapiens, UniProt Q13976)
Construct (Q13976 1-671): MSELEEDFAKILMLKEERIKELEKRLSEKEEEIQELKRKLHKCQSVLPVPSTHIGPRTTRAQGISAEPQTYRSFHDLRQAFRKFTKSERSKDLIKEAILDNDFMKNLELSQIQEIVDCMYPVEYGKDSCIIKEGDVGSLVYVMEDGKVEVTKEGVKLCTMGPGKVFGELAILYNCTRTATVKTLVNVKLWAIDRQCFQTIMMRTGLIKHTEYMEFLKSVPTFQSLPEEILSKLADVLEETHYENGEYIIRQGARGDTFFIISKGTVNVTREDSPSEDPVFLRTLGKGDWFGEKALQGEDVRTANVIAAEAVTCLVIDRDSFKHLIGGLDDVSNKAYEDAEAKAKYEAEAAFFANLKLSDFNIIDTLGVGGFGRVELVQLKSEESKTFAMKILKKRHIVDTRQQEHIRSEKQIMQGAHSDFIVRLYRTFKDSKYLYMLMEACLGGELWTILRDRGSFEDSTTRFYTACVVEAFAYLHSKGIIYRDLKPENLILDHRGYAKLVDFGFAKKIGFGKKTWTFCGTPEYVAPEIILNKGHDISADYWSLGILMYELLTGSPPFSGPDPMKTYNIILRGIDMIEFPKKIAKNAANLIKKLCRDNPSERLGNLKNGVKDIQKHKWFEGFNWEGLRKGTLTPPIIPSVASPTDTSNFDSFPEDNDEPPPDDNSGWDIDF
SMILES	remaining activity
OCC(O)CCON=C1C(c2c(O)[nH]c3ccccc23)=Nc2ccccc21 (stereo not shown)	45.1%
N#CC(C#N)=C(N)/C(C#N)=C/c1ccc(O)cc1	91.3%
COc1ccc(OC)c2c(=S)c3ccccc3[nH]c12	101%
COc1cc2nccc(Oc3ccc(NC(=S)NC(=O)c4ccccc4C)cc3)c2cc1OC	91.6%
N#CCCc1ccc2c(c1)-c1[nH]c3ccc([N+](=O)[O-])cc3c1CC(=O)N2	99.3%
Cc1nc(-c2ccccc2)c(-c2ccncc2)o1	90.5%
C#Cc1cccc(Nc2ncnc3cc(OCCOC)c(OCCOC)cc23)c1	85.6%
Cc1ccc(Nc2nccc(N(C)c3ccc4c(C)n(C)nc4c3)n2)cc1S(N)(=O)=O	95.1%
CC(C)[C@H](CO)Nc1nc(Nc2cc(N)cc(Cl)c2)c2ncn(C(C)C)c2n1	104%
O=C(CCCc1ccc(-c2ccccc2F)cc1)Nc1ccc(O)cc1	95.5%
Nc1[nH]nc2nc3ccccc3nc12	97.7%
O=C(O)c1ccc2c3c1cccc3c(=O)n1c3ccccc3nc21	94%
O=C1NC(=O)C(c2cn(CCCn3ccnc3)c3ccccc23)=C1Nc1ccccc1	89.3%
O=C1NC(=O)c2cc(Nc3ccc(F)cc3)c(Nc3ccc(F)cc3)cc21	94.3%
Oc1ccc(-c2nc(-c3ccncc3)c(-c3ccc(F)cc3)[nH]2)cc1	90.4%
Cc1cccc(-c2[nH]c(C(C)(C)C)nc2-c2ccc3c(c2)OCO3)n1	74.6%
Nc1ccc2ncnc(NCCc3ccc(Oc4ccccc4)cc3)c2c1	93.1%

Repeated from above (sample 4):
SMILES	remaining activity
Cc1ccc(Nc2nccc(N(C)c3ccc4c(C)n(C)nc4c3)n2)cc1S(N)(=O)=O	95.1%
Nc1[nH]nc2nc3ccccc3nc12	97.7%
O=C1NC(=O)c2cc(Nc3ccc(F)cc3)c(Nc3ccc(F)cc3)cc21	94.3%
Cc1nc(-c2ccccc2)c(-c2ccncc2)o1	90.5%
